Measured values collected from several papers.
Numbered parts are unrelated; each lists some results of a single study.
Chain of UniProt P61075 (whole entry, looked up): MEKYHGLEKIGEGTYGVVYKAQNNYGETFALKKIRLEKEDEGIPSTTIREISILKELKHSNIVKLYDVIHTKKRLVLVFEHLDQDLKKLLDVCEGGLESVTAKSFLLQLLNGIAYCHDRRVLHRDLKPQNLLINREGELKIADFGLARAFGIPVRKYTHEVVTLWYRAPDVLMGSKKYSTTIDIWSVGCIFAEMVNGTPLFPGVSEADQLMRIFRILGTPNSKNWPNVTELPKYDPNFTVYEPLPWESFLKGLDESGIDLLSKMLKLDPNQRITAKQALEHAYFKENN
Chain of UniProt P28335 (whole entry, looked up): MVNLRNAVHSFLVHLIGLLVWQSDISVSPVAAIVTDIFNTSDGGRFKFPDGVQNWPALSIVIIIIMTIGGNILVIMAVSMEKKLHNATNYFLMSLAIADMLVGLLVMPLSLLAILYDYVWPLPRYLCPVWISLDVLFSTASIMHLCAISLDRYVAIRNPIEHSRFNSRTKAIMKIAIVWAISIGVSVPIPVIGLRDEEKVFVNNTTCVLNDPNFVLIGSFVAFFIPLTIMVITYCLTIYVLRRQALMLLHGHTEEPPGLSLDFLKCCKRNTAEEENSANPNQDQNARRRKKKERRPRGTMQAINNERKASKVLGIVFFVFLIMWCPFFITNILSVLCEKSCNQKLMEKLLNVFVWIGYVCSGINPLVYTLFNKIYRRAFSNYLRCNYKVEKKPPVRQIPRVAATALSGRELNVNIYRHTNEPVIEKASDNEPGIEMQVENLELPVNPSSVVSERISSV
Chain of UniProt P11229 (whole entry, looked up): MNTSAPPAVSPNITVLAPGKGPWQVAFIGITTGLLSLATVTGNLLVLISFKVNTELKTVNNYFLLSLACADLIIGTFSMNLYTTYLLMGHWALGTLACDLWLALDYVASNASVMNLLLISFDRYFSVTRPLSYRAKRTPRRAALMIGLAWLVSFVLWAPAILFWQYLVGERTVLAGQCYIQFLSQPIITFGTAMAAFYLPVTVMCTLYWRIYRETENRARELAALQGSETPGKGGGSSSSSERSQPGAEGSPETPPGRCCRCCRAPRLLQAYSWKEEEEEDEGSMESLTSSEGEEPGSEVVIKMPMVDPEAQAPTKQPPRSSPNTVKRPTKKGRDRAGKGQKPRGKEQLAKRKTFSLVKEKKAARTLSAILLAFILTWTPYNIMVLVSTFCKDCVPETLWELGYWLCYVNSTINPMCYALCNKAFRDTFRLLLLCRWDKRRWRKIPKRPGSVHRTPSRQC
Chain of UniProt P62344 (whole entry, looked up): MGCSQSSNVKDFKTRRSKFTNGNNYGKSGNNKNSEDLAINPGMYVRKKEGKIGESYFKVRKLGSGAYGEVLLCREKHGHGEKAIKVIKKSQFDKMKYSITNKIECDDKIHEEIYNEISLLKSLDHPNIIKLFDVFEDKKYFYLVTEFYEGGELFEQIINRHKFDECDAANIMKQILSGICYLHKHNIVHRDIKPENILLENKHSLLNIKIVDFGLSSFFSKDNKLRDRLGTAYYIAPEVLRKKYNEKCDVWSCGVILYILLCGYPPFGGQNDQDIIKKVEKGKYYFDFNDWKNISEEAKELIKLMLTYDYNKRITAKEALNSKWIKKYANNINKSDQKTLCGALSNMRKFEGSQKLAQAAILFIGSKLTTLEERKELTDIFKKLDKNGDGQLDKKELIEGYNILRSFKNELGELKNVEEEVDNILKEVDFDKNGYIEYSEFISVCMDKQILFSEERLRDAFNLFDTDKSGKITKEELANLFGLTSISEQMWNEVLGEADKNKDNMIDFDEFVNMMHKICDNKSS

Set 1
Organism: Sarcocystis neurona
Read-out: parasite activity
Tested at: 10 µM
Time: 96 h
| SMILES | activity class |
| --- | --- |
| CC[C@]1(O)CC[C@H]2[C@@H]3CCC4=CCCC[C@@H]4[C@H]3CC[C@@]21C | inactive |
| O=c1c2ccccc2[se]n1-c1ccccc1 | inactive |
| O=C1Nc2ccc(Cl)cc2C(c2ccccc2Cl)=NC1O (centres unmarked) | inactive |

Set 2
Target: DNA polymerase theta, ATPase domain (POLQ, Homo sapiens, UniProt O75417)
Chain of UniProt O75417 (whole entry, unmodified, looked up): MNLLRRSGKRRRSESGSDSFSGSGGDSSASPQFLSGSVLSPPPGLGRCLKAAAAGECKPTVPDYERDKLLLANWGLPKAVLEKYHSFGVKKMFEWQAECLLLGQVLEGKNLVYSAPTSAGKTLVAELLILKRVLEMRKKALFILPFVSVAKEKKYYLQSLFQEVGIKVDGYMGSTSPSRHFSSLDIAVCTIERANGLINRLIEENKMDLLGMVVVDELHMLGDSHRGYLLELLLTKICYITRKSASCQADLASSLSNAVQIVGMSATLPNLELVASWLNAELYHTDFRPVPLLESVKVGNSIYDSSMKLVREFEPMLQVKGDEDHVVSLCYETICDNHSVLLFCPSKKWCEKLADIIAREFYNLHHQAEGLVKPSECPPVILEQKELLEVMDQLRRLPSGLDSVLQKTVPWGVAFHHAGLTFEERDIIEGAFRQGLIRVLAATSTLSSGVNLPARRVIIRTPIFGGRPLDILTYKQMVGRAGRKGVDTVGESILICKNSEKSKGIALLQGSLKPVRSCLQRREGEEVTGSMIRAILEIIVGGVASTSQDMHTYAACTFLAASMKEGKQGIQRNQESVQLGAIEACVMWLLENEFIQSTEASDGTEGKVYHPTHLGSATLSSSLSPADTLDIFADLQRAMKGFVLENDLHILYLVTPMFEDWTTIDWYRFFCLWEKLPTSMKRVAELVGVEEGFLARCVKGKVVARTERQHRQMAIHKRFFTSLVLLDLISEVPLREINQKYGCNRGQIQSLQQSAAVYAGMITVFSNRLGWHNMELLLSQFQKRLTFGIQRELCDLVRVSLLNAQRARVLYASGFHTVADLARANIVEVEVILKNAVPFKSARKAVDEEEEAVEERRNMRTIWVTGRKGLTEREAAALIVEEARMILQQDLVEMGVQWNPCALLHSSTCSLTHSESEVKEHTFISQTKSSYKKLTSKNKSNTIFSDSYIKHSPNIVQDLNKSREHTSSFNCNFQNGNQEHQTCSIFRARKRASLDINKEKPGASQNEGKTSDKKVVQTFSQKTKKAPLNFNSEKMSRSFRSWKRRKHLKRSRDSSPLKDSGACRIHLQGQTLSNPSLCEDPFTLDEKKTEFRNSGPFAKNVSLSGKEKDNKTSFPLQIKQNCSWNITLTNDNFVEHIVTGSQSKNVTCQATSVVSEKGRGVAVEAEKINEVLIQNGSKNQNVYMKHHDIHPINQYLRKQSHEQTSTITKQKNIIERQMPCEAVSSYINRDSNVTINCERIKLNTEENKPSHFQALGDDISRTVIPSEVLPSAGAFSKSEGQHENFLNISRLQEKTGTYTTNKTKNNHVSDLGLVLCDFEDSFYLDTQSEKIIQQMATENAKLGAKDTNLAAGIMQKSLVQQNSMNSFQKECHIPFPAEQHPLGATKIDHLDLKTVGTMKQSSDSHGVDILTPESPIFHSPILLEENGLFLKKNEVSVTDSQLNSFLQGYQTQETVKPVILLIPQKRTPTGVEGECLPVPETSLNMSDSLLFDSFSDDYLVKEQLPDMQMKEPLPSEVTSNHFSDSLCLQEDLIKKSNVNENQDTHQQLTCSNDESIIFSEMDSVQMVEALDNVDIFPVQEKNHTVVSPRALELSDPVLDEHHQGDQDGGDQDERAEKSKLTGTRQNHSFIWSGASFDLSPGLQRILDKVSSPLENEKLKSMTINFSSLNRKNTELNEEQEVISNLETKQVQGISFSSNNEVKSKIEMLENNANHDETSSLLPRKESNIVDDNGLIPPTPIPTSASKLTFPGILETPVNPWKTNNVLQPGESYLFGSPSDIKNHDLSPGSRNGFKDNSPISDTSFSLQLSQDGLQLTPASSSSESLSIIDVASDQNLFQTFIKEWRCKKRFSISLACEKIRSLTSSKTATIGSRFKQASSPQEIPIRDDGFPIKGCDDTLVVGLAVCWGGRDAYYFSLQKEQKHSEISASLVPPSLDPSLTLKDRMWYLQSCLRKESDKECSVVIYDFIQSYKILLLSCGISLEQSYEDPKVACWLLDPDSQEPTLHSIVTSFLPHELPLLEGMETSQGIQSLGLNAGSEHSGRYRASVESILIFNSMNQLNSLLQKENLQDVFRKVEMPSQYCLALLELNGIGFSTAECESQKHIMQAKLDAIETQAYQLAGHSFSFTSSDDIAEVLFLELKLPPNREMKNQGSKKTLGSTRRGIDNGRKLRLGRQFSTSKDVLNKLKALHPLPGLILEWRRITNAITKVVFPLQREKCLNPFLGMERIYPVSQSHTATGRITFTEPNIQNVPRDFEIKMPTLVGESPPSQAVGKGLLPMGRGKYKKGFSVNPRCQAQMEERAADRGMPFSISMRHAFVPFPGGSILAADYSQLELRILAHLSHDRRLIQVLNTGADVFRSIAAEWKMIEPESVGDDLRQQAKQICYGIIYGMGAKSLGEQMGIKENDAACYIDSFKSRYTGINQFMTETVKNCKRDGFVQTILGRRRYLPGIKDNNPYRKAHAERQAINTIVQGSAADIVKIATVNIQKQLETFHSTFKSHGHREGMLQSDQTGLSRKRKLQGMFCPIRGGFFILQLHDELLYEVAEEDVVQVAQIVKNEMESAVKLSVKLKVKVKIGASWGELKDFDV
Read-out: enzyme activity
Mode: inhibitor
Tested at: 77 µM
Baseline: untreated
| Compound | remaining activity |
| --- | --- |
| N=C(NCCC[C@H](N)C(=O)O)N[N+](=O)[O-] | 108% |
| CC(=O)Nc1ccc(OC[C@](C)(O)C(=O)Nc2ccc([N+](=O)[O-])c(C(F)(F)F)c2)cc1 | 93.1% |
| CCC1(c2cccc(O)c2)CCCCN(C)C1 (centres unmarked) | 102% |

Further values, each from its own experiment
| SMILES | tested on | test | test system | setting | endpoint | result |
| --- | --- | --- | --- | --- | --- | --- |
| CN([C@@H]1CCc2c(CC(=O)O)c3cc(S(C)(=O)=O)ccc3n2C1)S(=O)(=O)c1ccc(F)cc1 | HTR2C (Homo sapiens, UniProt P28335) | binding, radioligand binding | – | 10 µM | inhibition | 0.933% |
| Cc1n[nH]c2c1C(c1c(Cl)nc3sccn13)SCC(O)=N2 (centres unmarked) | – | – | mouse, microsomes or S9 | 2 µM, 0.5 h | remaining compound | 32.5% |
| Cc1cc2c(-c3ccco3)cnc(N[C@H]3CCN(C)C[C@@H]3C(=O)NC3CCCCC3)c2[nH]c1=O | CHRM1 (Homo sapiens, UniProt P11229) | ligand displacement | – | 10 µM | inhibition | 12% |
| Cn1nc(C(F)(F)F)cc1-c1cnc(N2CCc3cc(S(=O)(=O)Nc4c(F)cc(Cl)cc4F)cc(N4CCCC4=O)c32)nc1 | CRK2 (Plasmodium falciparum, UniProt P61075) | cell-free assay, competition with immobilised ligand | – | 1 µM | remaining binding | 73% |
| O=C(O)[C@@H]1[C@@H](Cn2nnc3ccccc3c2=O)CC[C@H]1C(=O)c1ccc(OCCC2CCOCC2)cc1 | CDPK1 (Plasmodium falciparum, UniProt P62344) | cell-free assay, competition with immobilised ligand | – | 1 µM | remaining binding | 100% |

Excerpt of the above (set 2):
| Compound | remaining activity |
| --- | --- |
| CCC1(c2cccc(O)c2)CCCCN(C)C1 (centres unmarked) | 102% |
